Measurements from different studies.
Each numbered part is a random draw from the data of one study; scales do not carry over between parts. Changes are numbered by the printed parent chain.
UniProt Q9H0K1, sequence (whole entry, looked up): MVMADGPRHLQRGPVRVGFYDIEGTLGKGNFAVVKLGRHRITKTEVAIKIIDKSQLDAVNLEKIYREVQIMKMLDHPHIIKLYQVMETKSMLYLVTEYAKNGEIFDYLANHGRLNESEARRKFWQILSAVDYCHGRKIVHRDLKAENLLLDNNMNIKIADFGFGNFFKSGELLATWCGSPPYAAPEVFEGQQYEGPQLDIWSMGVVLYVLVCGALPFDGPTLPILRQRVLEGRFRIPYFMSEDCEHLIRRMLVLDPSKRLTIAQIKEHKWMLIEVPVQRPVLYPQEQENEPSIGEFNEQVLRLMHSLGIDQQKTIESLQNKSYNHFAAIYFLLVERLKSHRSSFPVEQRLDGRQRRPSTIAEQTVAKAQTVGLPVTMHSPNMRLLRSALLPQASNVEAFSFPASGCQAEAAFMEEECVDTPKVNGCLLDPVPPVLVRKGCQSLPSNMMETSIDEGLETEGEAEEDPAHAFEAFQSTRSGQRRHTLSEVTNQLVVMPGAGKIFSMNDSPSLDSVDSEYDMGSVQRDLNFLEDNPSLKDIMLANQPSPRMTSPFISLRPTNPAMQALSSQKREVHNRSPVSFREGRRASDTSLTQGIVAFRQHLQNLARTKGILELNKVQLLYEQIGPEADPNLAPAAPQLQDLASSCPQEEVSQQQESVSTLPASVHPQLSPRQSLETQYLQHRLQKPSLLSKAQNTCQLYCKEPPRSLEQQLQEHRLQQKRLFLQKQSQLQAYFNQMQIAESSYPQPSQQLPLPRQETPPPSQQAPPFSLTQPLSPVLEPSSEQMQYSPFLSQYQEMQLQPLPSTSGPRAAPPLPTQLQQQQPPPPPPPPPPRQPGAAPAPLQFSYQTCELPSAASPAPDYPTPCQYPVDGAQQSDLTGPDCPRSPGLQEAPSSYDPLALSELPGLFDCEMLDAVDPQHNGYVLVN

Block 1 — technique: protein-binding microarray; molecule type: double-stranded DNA, one strand shown; medium: in vitro; concentration: 940 nM top; notes: 60-bp whole probe; with: salmon DNA 0.4 mg/ml; reference: random background probes; direction: higher = stronger binding; constant ends, left off below: GCCTAGCAC … GTCTTGATTCGCTTGACGCTGCTG
Target: Interferon regulatory factor 5, full length, phosphomimetic (IRF5, Homo sapiens, UniProt Q13568-2, residues 1-514, S451D/S453D/S456D/S462D)
| Sequence | fitted relative affinity |
| --- | --- |
| TTAGGACCGGGTTTCGGTTAGTGCTAG | 6.95 z-score |
| TTAGGGCTCCTTATCCTTTAGTGCTAG | 0.105 z-score |
| TTAGGTTTCGACACTGAGTTAGTGCTA | 7.64 z-score |
| GACGGTTCCCTTTTTCTGACGTGCTAG | 1.2 z-score |
| TTACATCTCAGTATCGATTAGTGCTAG | 5.65 z-score |
| GACGGTTTCGACAATCGGGACGTGCTA | 6.71 z-score |
| GACGGTTTCCTTTCCCTGTCGTGCTAG | 4.14 z-score |
| GACGGTATCGTCACTGGGGACGTGCTA | 1.72 z-score |

Block 2 — Variant: H34K; technique: DHFR PCA, deep sequencing; medium: yeast; reference: wild-type fitted maximum; direction: higher = stronger binding
Target: ABI1, truncated, D143A, DHFR fusion (Arabidopsis thaliana)
Notes: methotrexate growth selection, single substitutions
Starting sequence: PYL1, truncated, DHFR fusion (Arabidopsis thaliana); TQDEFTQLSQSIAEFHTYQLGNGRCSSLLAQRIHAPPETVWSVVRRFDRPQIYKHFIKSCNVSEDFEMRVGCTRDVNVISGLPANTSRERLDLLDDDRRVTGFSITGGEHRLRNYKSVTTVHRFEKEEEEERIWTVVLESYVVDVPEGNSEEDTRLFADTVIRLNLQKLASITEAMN
| with | relative binding score [%] |
| --- | --- |
| (+)-ABA 1.4 µM | 48.7 |
| (+)-ABA 58 µM | 91.5 |
| (+)-ABA 200 µM | 102 |
| (+)-ABA 0.032 µM | 30.4 |
| (+)-ABA 17 µM | 89.9 |
| (+)-ABA 0.39 µM | 51.1 |

Further values, each from its own experiment
| SMILES | target or system | effect on | technique | medium | concentration | measurement | value |
| --- | --- | --- | --- | --- | --- | --- | --- |
| CCOC(=O)[C@@H]1CSCC(=O)N[C@H](CC)C(=O)N(C)[C@@H](C)C(=O)N[C@H](CC(C)C)C(=O)N2CCC[C@@H]2C(=O)N(CC)CC(=O)N[C@H](CC(C)C)C(=O)N(C)[C@@H](C)C(=O)N[C@@H](CC(C)C)C(=O)N1C |  |  |  | hydrocarbon/water |  | logD | 0.611 |
| Nc1cnc(N2CCc3cc(S(=O)(=O)Nc4c(F)cc(Cl)cc4F)cc(N4CCCC4=O)c32)nc1 | SIK2 (Homo sapiens, UniProt Q9H0K1) | cell-free assay | competition with immobilised ligand |  | 1 µM | remaining binding | 100% |
